{"data": "Experimental data collected from several papers", "note": "Protocols differ between the studies behind these lines."}
{"Structure (SMILES)": "CCCCCCC#Cc1cncc(-c2nnc(SCc3cc([N+](=O)[O-])cc([N+](=O)[O-])c3)n2C)c1", "organism": "Mycobacteroides abscessus", "scale": "no activity below value", "endpoint": "MIC", "value": "≥ 200 µM"}
{"Structure (SMILES)": "CO[C@H]1/C=C/O[C@@]2(C)Oc3c(C)c(O)c4c(O)c(c(/C=N/N5CCN(C)CC5)c(O)c4c3C2=O)NC(=O)/C(C)=C\\C=C\\[C@H](C)[C@H](O)[C@@H](C)[C@@H](O)[C@@H](C)[C@H](OC(C)=O)[C@@H]1C", "organism": "Mycobacteroides abscessus", "system": "ATCC 19977", "conditions": "72 h", "endpoint": "MIC", "value": "150 µM"}
{"Structure (SMILES)": "CCOC(=O)COc1ccc2ccc3oc([N+](=O)[O-])cc3c2c1", "organism": "Mycobacteroides abscessus", "test": "REMA", "system": "ATCC 19977", "endpoint": "MIC90", "value": "4 µg/mL"}
{"Structure (SMILES)": "CS(=O)(=O)Nc1ncn(-c2cc(F)c(COc3ccc(OS(=O)(=O)F)cc3)c(F)c2)n1", "organism": "Mycobacteroides abscessus", "endpoint": "MIC", "value": "6.25 µM"}
{"Structure (SMILES)": "Cc1ccc(-c2nc3ccc(C)cn3c2CC(=O)N(C)C)cc1", "organism": "Mycobacteroides abscessus", "system": "ATCC 19977", "conditions": "72 h", "endpoint": "MIC", "value": "> 50 µM"}
{"Structure (SMILES)": "CC(C)(C)Cn1c(N)nc2ccc(-c3[nH]c(C(C)(C)C)nc3-c3ccc(F)cc3)nc21", "organism": "human coronavirus OC43", "test": "virus-induced cell killing", "system": "MRC-5", "conditions": "maximum over 10 doses", "endpoint": "maximum inhibition", "value": "0%"}
{"Structure (SMILES)": "CO[C@H]1/C=C/O[C@@]2(C)Oc3c(C)c(O)c4c(c3C2=O)C2=NC3(CCN(CC(C)C)CC3)NC2=C(NC(=O)/C(C)=C\\C=C\\[C@H](C)[C@H](O)[C@@H](C)[C@@H](O)[C@@H](C)[C@H](OC(C)=O)[C@@H]1C)C4=O", "organism": "Mycobacteroides abscessus", "system": "RFB-R1 rifamycin-resistant RNAP mutant", "scale": "90% growth inhibition", "endpoint": "MIC", "value": "> 100 µM"}
{"Structure (SMILES)": "COC(=O)c1ccc2c(ccc3oc([N+](=O)[O-])cc32)c1", "organism": "Mycobacteroides abscessus", "test": "REMA", "system": "ATCC 19977", "endpoint": "MIC90", "value": "> 32 µg/mL"}
{"Structure (SMILES)": "CC[C@H]1OC(=O)[C@H](C)[C@@H](O[C@H]2C[C@@](C)(OC)[C@@H](O)[C@H](C)O2)[C@H](C)[C@@H](O[C@@H]2O[C@H](C)C[C@H](N(C)C)[C@H]2O)[C@](C)(OC)C[C@@H](C)C(=O)[C@H](C)[C@@H](O)[C@]1(C)O", "organism": "Mycobacteroides abscessus", "system": "RFB-R1 rifamycin-resistant RNAP mutant", "scale": "90% growth inhibition", "endpoint": "MIC", "value": "2.1 µM"}
{"Structure (SMILES)": "COc1ccc(S(=O)(=O)Nc2cccnc2Nc2ccc(O)cc2)cc1", "organism": "human coronavirus OC43", "test": "virus-induced cell killing", "system": "MRC-5", "conditions": "maximum over 10 doses", "endpoint": "maximum inhibition", "value": "0%"}
{"note": "Excerpt of the above:"}
{"Structure (SMILES)": "CCOC(=O)COc1ccc2ccc3oc([N+](=O)[O-])cc3c2c1", "organism": "Mycobacteroides abscessus", "test": "REMA", "system": "ATCC 19977", "endpoint": "MIC90", "value": "4 µg/mL"}
